{"data": "Measurements from different studies", "gag-pol protease": "Gag-Pol polyprotein, protease (gag-pol, Human immunodeficiency virus type 1 group M subtype B, UniProt P04585)", "Spike glycoprotein": "Spike glycoprotein (Severe acute respiratory syndrome coronavirus 2, UniProt P0DTC2)", "gag-pol K653T reverse transcriptase": "Gag-Pol polyprotein, reverse transcriptase (gag-pol, Human immunodeficiency virus type 1 group M subtype B, UniProt P04585, K653T)", "note": "Each line is one published result; not all experiments were run side by side. ± gives the spread as reported.", "chain of UniProt P12390 (whole entry, looked up)": "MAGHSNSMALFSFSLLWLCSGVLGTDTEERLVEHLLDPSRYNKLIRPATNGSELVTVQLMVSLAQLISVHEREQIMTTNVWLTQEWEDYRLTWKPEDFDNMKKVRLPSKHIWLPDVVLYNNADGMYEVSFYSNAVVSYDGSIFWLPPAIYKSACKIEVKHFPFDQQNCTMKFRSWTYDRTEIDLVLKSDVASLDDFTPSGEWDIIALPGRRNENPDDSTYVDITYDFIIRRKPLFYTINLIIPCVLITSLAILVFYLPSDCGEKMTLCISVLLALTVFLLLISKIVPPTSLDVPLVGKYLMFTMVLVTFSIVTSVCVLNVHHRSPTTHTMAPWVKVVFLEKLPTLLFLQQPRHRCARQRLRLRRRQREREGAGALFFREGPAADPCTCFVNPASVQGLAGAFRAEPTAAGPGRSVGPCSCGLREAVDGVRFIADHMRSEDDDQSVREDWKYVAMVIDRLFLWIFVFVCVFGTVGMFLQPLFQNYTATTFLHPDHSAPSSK", "chain of UniProt P43143 (whole entry, looked up)": "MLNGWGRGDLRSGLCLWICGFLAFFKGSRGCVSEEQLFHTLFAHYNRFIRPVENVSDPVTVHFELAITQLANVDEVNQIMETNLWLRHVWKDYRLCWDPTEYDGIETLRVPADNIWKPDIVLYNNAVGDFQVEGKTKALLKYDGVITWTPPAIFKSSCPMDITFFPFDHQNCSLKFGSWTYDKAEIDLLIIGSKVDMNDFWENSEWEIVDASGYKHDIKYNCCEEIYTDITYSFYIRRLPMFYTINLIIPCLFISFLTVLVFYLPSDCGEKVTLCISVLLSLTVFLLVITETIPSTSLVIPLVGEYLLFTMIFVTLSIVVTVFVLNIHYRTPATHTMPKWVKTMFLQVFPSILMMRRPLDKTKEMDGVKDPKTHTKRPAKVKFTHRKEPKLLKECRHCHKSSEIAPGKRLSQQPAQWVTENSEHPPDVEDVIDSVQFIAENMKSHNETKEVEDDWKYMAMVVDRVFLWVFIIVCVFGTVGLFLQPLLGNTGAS", "chain of UniProt P42260 (whole entry, looked up)": "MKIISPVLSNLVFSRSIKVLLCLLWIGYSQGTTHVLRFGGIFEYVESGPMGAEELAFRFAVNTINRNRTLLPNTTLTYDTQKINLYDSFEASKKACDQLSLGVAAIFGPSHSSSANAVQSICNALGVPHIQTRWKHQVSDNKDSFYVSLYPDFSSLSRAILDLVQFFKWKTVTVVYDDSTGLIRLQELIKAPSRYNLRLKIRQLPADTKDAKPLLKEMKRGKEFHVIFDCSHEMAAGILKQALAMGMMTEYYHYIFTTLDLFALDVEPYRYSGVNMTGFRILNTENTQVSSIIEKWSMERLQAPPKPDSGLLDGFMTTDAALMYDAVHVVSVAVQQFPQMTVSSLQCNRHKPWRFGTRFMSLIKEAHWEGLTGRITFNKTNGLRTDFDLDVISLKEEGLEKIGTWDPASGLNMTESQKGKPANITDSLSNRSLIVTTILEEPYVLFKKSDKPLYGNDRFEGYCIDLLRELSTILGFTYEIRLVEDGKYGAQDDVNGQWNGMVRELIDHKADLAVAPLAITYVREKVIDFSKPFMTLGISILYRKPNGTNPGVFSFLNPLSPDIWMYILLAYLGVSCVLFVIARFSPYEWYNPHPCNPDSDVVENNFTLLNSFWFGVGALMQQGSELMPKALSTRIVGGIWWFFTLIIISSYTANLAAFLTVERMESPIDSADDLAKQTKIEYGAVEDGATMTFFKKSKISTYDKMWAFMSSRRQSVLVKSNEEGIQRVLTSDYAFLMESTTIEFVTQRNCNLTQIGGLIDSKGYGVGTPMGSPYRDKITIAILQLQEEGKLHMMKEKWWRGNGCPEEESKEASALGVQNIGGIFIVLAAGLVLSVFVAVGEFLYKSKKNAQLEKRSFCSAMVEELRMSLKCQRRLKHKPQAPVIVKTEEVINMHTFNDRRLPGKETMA", "chain of UniProt P51168 (whole entry, looked up)": "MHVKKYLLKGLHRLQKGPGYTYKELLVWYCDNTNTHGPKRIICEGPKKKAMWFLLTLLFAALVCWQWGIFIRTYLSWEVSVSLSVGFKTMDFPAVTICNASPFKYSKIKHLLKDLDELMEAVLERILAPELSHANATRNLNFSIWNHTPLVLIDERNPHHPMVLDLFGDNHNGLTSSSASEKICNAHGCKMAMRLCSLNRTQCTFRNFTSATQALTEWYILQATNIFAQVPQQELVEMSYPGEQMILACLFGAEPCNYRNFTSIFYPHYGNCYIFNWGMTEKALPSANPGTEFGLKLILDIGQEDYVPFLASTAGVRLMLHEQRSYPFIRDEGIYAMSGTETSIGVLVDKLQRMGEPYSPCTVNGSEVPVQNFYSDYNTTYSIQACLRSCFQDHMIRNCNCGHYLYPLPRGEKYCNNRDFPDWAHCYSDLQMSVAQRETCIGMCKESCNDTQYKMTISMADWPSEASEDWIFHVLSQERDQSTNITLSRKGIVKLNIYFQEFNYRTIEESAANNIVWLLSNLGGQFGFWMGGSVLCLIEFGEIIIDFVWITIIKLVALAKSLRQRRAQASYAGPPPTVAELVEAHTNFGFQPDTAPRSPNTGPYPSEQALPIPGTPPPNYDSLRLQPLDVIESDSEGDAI"}
{"SMILES": "COc1ccc(S(=O)(=O)N(CC(C)C)C[C@@H](O)[C@H](Cc2ccccc2)NC(=O)O[C@@H]2CCC[C@]23CCO[C@H](c2cccc(OC)c2)C3)cc1", "target or system": "gag-pol protease", "test": "enzyme activity, inhibitor", "measurement": "Ki", "value": "0.0174 µM"}
{"SMILES": "CC[C@H](C)[C@H](NC(=O)[C@H](CC(C)C)NC(=O)[C@H](Cc1c[nH]c2ccccc12)NC(=O)[C@H](CCC(N)=O)NC(=O)[C@@H](NC(=O)[C@H](Cc1ccccc1)NC(=O)[C@H](C)NC(=O)[C@H](CCCCNC(=O)COCCOCCNC(=O)COCCOCCNC(=O)CC[C@H](NC(=O)CCCCCCCCCCCCCCCCCCC(=O)O)C(=O)O)NC(=O)[C@H](CCC(N)=O)NC(=O)[C@H](C)NC(=O)[C@@H](NC(=O)[C@H](CCCCN)NC(=O)[C@H](CC(=O)O)NC(=O)[C@H](CC(C)C)NC(=O)C(C)(C)NC(=O)[C@@H](NC(=O)[C@H](CO)NC(=O)[C@H](Cc1ccc(O)cc1)NC(=O)[C@H](CC(=O)O)NC(=O)[C@H](CO)NC(=O)[C@@H](NC(=O)[C@H](Cc1ccccc1)NC(=O)[C@@H](NC(=O)CNC(=O)[C@H](CCC(=O)O)NC(=O)C(C)(C)NC(=O)[C@@H](N)Cc1ccc(O)cc1)[C@@H](C)O)[C@@H](C)O)[C@@H](C)CC)[C@@H](C)CC)C(C)C)C(=O)N[C@@H](C)C(=O)NCC(=O)NCC(=O)N1CCC[C@H]1C(=O)N[C@@H](CO)C(=O)N[C@@H](CO)C(=O)NCC(=O)N[C@@H](C)C(=O)N1CCC[C@H]1C(=O)N1CCC[C@H]1C(=O)N1CCC[C@H]1C(=O)N[C@@H](CO)C(N)=O", "system": "healthy subjects, single ascending dose", "setting": "8.0 mg, day 29", "how to read": "baseline: baseline", "measurement": "systolic blood pressure change", "value": "5.27 mmHg"}
{"SMILES": "CC(=O)O[C@@H]1[C@H](N)[C@@H](OP(=O)(O)O)[C@@]2(C(=O)O)CS[C@@](O)(C(N)=O)[C@@H]1O2", "target or system": "DNA-directed RNA polymerase subunit beta' / DNA-directed RNA polymerase subunit beta (rpoC/rpoB, Escherichia coli, UniProt P0A8T7+P0A8V2, R933A)", "test": "binding to elongation complex, 6-MI fluorescence titration", "system": "β′R933A RNAP", "setting": "riboside RNA 3′-end adenine", "measurement": "Kd", "value": "1.64 ± 0.45 µM"}
{"SMILES": "CC1(C)[C@@H](O)CC[C@]2(C)[C@H]3C(=O)C=C4[C@@H]5C[C@@](C)(C(=O)O)CC[C@]5(C)CC[C@@]4(C)[C@]3(C)CC[C@@H]12", "target or system": "Spike glycoprotein", "test": "binding, biolayer interferometry", "measurement": "Kd", "value": "38.7 µM"}
{"SMILES": "COc1ccc(S(=O)(=O)N(CC(C)C)C[C@@H](O)[C@H](Cc2ccccc2)NC(=O)O[C@@H]2CCC[C@]23CCO[C@H](c2ccccc2OC)C3)cc1", "target or system": "gag-pol protease", "test": "inhibitor, fluorometric", "system": "HIV-1", "measurement": "Ki", "value": "2.85 µM"}
{"SMILES": "N[C@@H](CCCc1c[nH]c2ccccc12)C(=O)O", "target or system": "tryptophanase (Bacteroides thetaiotaomicron)", "test": "enzyme activity, inhibitor", "system": "Bacteroides thetaiotaomicron", "measurement": "Ki", "value": "> 250 µM"}
{"SMILES": "N[C@@H](C[C@]1(C(=O)O)C[C@H]2OC[C@@H](O)[C@@H](O)[C@H]2O1)C(=O)O", "target or system": "Grik2 (Rattus norvegicus, UniProt P42260)", "test": "binding", "system": "HEK293T/17 membranes", "setting": "with: [3H]kainate", "measurement": "Ki", "value": "0.0084 µM"}
{"SMILES": "Clc1cc(N2C[C@@H]3CN[C@@H]3C2)cnc1Cl", "target or system": "Chrnb2/Chrna6 (Rattus norvegicus, UniProt P12390+P43143)", "system": "rat", "measurement": "Ki", "value": "0.0019 ± 0.0004 µM"}
{"SMILES": "CNC(=O)[C@@H](NC(=O)[C@H](CC(C)C)[C@H](O)C(=O)NO)C(C)(C)C", "target or system": "human fibrinogen", "test": "SDS-PAGE", "system": "Daboia russelii", "setting": "concentration not given, unit not given, with: KL venom", "how to read": "baseline: untreated fibrinogen", "measurement": "remaining fibrinogen Bβ chain", "value": 0.816}
{"SMILES": "Cc1cn([C@H]2C=C[C@@H](COP(=O)(O)OP(=O)(O)OP(=O)(O)O)O2)c(=O)[nH]c1=O", "target or system": "Gag-Pol polyprotein, reverse transcriptase (gag-pol, Human immunodeficiency virus type 1 group M subtype B, UniProt P04585, K653A)", "test": "inhibitor", "system": "HIV-1", "measurement": "IC50", "value": "7.91 ± 1.22 µM"}
{"SMILES": "COc1ccc([C@H]2C[C@]3(CCC[C@H]3OC(=O)N[C@@H](Cc3ccccc3)[C@H](O)CN(CC(C)C)S(=O)(=O)c3ccc(OC)cc3)CCO2)cc1", "target or system": "gag-pol protease", "test": "enzyme activity, inhibitor", "measurement": "Ki", "value": "0.0474 µM"}
{"SMILES": "CC(C)C[C@H](NC(=O)[C@H](Cc1ccccc1)NC(=O)[C@@H]1CCCN1C(=O)[C@H](CCCNC(=N)N)NC(=O)[C@H](CCC(=O)O)NC(=O)[C@@H]1CCCN1C(=O)[C@H](CO)NC(=O)[C@@H](N)CCC(=O)O)C(=O)O", "target or system": "Epithelial sodium channel subunit beta (Homo sapiens, UniProt P51168)", "test": "isothermal titration calorimetry", "setting": "recombinant, His and GST tag", "measurement": "Kd", "value": "0.01 to 0.1 µM"}
{"SMILES": "C[C@H](Cn1cnc2c(N)ncnc21)OCP(=O)(O)O", "target or system": "gag-pol K653T reverse transcriptase", "test": "inhibitor", "system": "HIV-1", "measurement": "IC50", "value": "1.222 ± 0.00116 µM"}
{"SMILES": "COc1ccc(S(=O)(=O)N(CC(C)C)C[C@@H](O)[C@H](Cc2ccccc2)NC(=O)O[C@H]2CCC[C@]23CCO[C@H](c2cc(OC)cc(OC)c2)C3)cc1", "target or system": "gag-pol protease", "test": "enzyme activity, inhibitor", "measurement": "Ki", "value": "0.976 µM"}
{"SMILES": "CC[C@H](C)[C@H](NC(=O)[C@H](CC(C)C)NC(=O)[C@@H](NC(=O)[C@@H](NC(=O)[C@H](CC(C)C)NC(=O)[C@H](CC(=O)O)NC(=O)[C@H](CC(C)C)NC(=O)[C@H](Cc1ccccc1)NC(=O)[C@H](Cc1c[nH]c2ccccc12)NC(=O)[C@@H](NC(=O)[C@H](CC(C)C)NC(=O)[C@H](Cc1ccccc1)NC(=O)[C@H](Cc1ccc(O)cc1)NC(=O)[C@H](Cc1c[nH]c2ccccc12)NC(=O)[C@H](CC(C)C)NC(=O)[C@H](CCCCN)NC(=O)[C@H](Cc1c[nH]c2ccccc12)NC(=O)[C@H](Cc1c[nH]c2ccccc12)NC(=O)[C@H](CCCCN)NC(=O)[C@H](CCCCN)NC(=O)[C@H](CCCCN)NC(=O)[C@@H](N)CCCCN)C(C)C)[C@@H](C)CC)[C@@H](C)CC)C(=O)N[C@@H](CC(C)C)C(=O)N[C@@H](CC(C)C)C(=O)N[C@@H](CC(C)C)C(=O)N[C@@H](Cc1c[nH]c2ccccc12)C(=O)N[C@@H](Cc1c[nH]c2ccccc12)C(=O)N[C@@H](CCCCN)C(=O)N[C@@H](CCCCN)C(=O)N[C@@H](CCCCN)C(=O)N[C@@H](CCCCN)C(=O)O", "target or system": "Latent membrane protein 1, transmembrane domain 5 (Human herpesvirus 4, UniProt P03230)", "test": "TMD5 self-association disruption, fluorescence dequenching", "system": "Epstein-Barr virus, C14 betaine micelles", "setting": "pH 7.4", "measurement": "EC50", "value": "3.3 ± 0.2 µM"}
{"SMILES": "Nc1ncnc2c([C@@H]3N[C@H](CO)[C@@H](O)[C@H]3O)c[nH]c12", "target or system": "Yellow fever virus", "test": "viral replication", "system": "Vero 76, 17D", "setting": "0.9 µM", "measurement": "inhibition", "value": "0%"}
{"SMILES": "Cc1cn([C@H]2C[C@H](N=[N+]=[N-])[C@@H](CO[P@](=O)(O)O[P@](=O)(O)OP(=O)(O)O)O2)c(=O)[nH]c1=O", "target or system": "gag-pol K653T reverse transcriptase", "test": "inhibitor", "system": "HIV-1", "measurement": "IC50", "value": "0.2189 ± 0.00128 µM"}
{"SMILES": "Cn1cnc(Cn2c(=O)[nH]/c(=N\\c3cc4cn(C)nc4cc3Cl)n(Cc3cc(F)c(F)cc3F)c2=O)n1", "system": "human, normal renal function", "setting": "oral, 375 mg, single dose, geometric mean", "measurement": "terminal elimination rate constant", "value": "4.39e-06 s⁻¹"}
{"SMILES": "CO[C@H]1/C=C/O[C@@]2(C)Oc3c(C)c(O)c4c(O)c(c(/C=N/N5CCN(C)CC5)c(O)c4c3C2=O)NC(=O)/C(C)=C\\C=C\\[C@H](C)[C@H](O)[C@@H](C)[C@@H](O)[C@@H](C)[C@H](OC(C)=O)[C@@H]1C", "target or system": "Spike glycoprotein", "test": "binding, biolayer interferometry", "measurement": "Kd", "value": "117 µM"}
